# Assay results of several laboratories.
# A part holds a random share of what one study measured. “And” joins repeats or separate records; there may be more than shown.
# Chain of UniProt P06870 (whole entry, looked up): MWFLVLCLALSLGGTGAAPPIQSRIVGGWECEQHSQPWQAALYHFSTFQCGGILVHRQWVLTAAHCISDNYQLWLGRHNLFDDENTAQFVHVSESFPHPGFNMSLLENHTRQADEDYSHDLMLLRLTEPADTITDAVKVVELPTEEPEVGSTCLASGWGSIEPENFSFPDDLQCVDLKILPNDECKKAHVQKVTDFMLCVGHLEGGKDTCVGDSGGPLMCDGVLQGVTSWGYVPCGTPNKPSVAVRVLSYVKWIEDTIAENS
# Chain of UniProt Q9UKR3 (whole entry, looked up): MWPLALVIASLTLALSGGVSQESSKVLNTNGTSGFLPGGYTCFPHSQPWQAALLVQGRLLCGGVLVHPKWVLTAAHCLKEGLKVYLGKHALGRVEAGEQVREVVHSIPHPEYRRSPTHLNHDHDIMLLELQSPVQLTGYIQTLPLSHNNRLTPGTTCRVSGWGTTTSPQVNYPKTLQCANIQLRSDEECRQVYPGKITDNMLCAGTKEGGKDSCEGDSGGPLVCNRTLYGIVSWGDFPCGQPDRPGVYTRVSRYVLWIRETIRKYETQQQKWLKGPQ
# Chain of UniProt Q9Y337 (whole entry, looked up): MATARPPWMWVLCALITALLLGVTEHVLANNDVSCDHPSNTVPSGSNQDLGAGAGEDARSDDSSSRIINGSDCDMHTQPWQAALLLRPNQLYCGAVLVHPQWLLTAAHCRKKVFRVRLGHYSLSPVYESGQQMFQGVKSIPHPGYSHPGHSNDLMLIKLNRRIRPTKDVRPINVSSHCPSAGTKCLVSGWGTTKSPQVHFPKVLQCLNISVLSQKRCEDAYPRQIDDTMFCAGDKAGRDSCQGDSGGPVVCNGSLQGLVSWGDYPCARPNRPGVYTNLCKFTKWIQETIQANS
# Chain of UniProt P00742 (whole entry, looked up): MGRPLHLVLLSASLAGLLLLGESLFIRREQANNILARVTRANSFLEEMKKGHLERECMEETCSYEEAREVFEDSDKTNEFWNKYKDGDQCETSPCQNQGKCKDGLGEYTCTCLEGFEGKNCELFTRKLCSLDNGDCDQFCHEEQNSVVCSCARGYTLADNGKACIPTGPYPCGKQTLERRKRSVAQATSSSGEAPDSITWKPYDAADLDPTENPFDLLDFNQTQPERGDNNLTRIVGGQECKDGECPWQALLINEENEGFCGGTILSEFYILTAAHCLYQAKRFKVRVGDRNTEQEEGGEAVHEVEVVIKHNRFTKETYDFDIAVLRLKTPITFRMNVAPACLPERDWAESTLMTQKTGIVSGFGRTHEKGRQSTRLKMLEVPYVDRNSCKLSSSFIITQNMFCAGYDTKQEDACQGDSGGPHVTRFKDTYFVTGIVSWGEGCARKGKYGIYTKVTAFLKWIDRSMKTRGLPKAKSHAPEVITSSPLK
# Chain of UniProt P08709 (whole entry, looked up): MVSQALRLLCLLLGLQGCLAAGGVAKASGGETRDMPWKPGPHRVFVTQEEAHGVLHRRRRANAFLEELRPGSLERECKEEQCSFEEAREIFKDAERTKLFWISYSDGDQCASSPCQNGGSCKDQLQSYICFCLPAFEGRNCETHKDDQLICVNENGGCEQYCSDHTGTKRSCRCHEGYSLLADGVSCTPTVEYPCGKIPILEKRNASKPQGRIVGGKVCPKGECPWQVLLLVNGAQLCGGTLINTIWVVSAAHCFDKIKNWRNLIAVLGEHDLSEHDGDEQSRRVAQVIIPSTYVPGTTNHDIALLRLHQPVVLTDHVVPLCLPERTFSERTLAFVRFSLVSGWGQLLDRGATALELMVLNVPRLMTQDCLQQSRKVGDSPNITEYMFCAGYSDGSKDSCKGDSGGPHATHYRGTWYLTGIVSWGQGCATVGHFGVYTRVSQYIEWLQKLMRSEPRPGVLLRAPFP
# Chain of UniProt P25774 (whole entry, looked up): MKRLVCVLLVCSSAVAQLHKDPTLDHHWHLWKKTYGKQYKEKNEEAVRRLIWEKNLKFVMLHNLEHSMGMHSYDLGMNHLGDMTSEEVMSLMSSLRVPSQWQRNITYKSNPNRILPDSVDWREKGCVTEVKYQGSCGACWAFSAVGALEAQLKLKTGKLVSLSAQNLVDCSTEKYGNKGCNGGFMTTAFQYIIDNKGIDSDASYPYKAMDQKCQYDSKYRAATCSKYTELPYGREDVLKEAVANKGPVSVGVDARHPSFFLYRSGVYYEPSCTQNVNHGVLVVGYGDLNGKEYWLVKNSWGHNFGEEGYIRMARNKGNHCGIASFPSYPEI
# Chain of UniProt P20231 (whole entry, looked up): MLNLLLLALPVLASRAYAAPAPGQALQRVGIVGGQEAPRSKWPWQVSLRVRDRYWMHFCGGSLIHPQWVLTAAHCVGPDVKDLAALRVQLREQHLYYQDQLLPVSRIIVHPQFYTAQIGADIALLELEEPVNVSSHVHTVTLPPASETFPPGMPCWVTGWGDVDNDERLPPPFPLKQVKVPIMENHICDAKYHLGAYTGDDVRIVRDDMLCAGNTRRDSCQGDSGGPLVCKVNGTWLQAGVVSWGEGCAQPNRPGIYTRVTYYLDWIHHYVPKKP
# Chain of UniProt P03952 (whole entry, looked up): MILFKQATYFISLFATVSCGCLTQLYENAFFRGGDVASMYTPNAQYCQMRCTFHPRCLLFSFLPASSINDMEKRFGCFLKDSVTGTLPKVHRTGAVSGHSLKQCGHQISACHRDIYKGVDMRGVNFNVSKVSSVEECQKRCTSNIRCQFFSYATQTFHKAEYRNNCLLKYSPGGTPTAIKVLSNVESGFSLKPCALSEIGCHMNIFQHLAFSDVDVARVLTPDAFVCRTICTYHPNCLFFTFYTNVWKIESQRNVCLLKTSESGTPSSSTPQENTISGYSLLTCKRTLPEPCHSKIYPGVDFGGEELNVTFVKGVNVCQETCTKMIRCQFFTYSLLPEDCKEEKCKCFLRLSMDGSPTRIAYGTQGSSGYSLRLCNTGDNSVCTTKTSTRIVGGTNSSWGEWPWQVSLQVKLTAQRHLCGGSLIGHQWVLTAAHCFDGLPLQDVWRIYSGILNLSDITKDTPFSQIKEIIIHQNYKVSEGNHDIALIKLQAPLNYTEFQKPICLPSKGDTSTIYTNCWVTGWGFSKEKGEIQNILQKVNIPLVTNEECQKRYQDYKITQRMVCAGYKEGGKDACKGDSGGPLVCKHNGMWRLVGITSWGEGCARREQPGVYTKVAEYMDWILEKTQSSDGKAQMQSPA

# Series 1
# Structure (SMILES): CNC(=N)NCCC[C@H](NC(=O)[C@H](CC(C)C)NC(=O)NNC(=O)[C@H](Cc1ccccc1)NC(=O)[C@H](CO)NC(=O)[C@H](CC(N)=O)NC(=O)[C@@H](Cc1ccncc1)NC(=O)[C@H](N)Cc1ccc(O)cc1)C(=O)N[C@@H](Cc1ccccc1)C(N)=O
# Tested at: 0.1 µM
# Baseline: DMSO
cell line,technique,notes,viability
sample J colorectal tumour organoid,,,108%
sample B colorectal tumour organoid,,,116%
normal-adjacent epithelium patient-derived organoids sample H,CellTiter-Glo,,102% and 101%
sample C colorectal tumour organoid,,replicate 1,127%

# Series 2
# SMILES: CN(C)C(=O)COC(=O)Cc1ccc(OC(=O)c2ccc(NC(=N)N)cc2)cc1
target,IC50
"Kallikrein-5 (Homo sapiens, UniProt Q9Y337)",1.01 µM
"Kallikrein-13 (Homo sapiens, UniProt Q9UKR3)",0.845 µM
"Cathepsin S (CTSS, Homo sapiens, UniProt P25774)",> 10 µM
"Coagulation factor X (F10, Homo sapiens, UniProt P00742)",9.91 µM
"Kallikrein-1 (KLK1, Homo sapiens, UniProt P06870)",17.2 µM and > 10 µM
"Coagulation factor VII (F7, Homo sapiens, UniProt P08709)",3.54 µM
"Tryptase beta-2 (TPSB2, Homo sapiens, UniProt P20231)",< 0.000508 µM
"Plasma kallikrein (KLKB1, Homo sapiens, UniProt P03952)",0.000836 µM

# Series 3
# Cell line: HEK-293T
# Organism: VSV pseudotyped with VSV-G
# Tested at: 10 µM
# Time: 16 h
Structure (SMILES),pseudovirus infection
CN/C(=N/CCSCc1nc[nH]c1C)NC#N,108%
Clc1ccccc1C(c1ccccc1)(c1ccccc1)n1ccnc1,54.4%
O=C1CCc2ccc(OCCCCN3CCN(c4cccc(Cl)c4Cl)CC3)cc2N1,93.8%
Cc1cc2c(s1)Nc1ccccc1N=C2N1CCN(C)CC1,110%
CC(C)NCC(O)COc1cccc2ccccc12 (stereo not shown),114%
Clc1cccc(Cl)c1N=C1NCCN1,104%
CCCN[C@H]1CCc2nc(N)sc2C1,86.7%
Clc1ccc(C(Cn2ccnc2)OCc2ccsc2Cl)c(Cl)c1 (stereo not shown),105%
CCCc1cc(=O)[nH]c(=S)[nH]1,103%
CCCCS(=O)(=O)N[C@@H](Cc1ccc(OCCCCC2CCNCC2)cc1)C(=O)O,96.2%
O=P1(N(CCCl)CCCl)NCCCO1 (stereo not shown),107%
CNCCCC1c2ccccc2C=Cc2ccccc21,107%
CC1(C)C[C@@H]1C(=O)N/C(=C\CCCCSC[C@H](N)C(=O)O)C(=O)O,111%
CCOC(=O)N1CCC(=C2c3ccc(Cl)cc3CCc3cccnc32)CC1,114%
O=C(O)c1cccnc1,95%
O=c1n(CCCN2CCN(c3cccc(Cl)c3)CC2)nc2ccccn12,92.2%
NCCc1ccc(O)c(O)c1,104%
CNCCC(Oc1ccc(C(F)(F)F)cc1)c1ccccc1 (stereo not shown),124%
Cc1cc(NS(=O)(=O)c2ccc(N)cc2)no1,94%

# Series 4
# Structure (SMILES): O=C1CCC(N2Cc3c(ccc4c3OCC43CCN(Cc4ccccc4)CC3)C2=O)C(=O)N1 (stereo not shown)
# Effect on: metabolic stability
# Matrix: liver microsomes
# Tested at: 1 µM
host,time,compound remaining
rat,30 min,80.2%
mouse,15 min,87.6%
mouse,30 min,70.5%
mouse,0 h,100%
rat,5 min,100%
human,0 h,100%
mouse,5 min,93.8%
rat,15 min,90.4%
human,5 min,107%

# A few entries again (series 2):
target,IC50
"Plasma kallikrein (KLKB1, Homo sapiens, UniProt P03952)",0.000836 µM
"Kallikrein-13 (Homo sapiens, UniProt Q9UKR3)",0.845 µM
"Kallikrein-5 (Homo sapiens, UniProt Q9Y337)",1.01 µM
"Tryptase beta-2 (TPSB2, Homo sapiens, UniProt P20231)",< 0.000508 µM
